Literature values as cited in several papers.
Lines come from different studies, so protocols differ. ± gives the spread as reported.
Sequence of UniProt Q13976 (whole entry, looked up): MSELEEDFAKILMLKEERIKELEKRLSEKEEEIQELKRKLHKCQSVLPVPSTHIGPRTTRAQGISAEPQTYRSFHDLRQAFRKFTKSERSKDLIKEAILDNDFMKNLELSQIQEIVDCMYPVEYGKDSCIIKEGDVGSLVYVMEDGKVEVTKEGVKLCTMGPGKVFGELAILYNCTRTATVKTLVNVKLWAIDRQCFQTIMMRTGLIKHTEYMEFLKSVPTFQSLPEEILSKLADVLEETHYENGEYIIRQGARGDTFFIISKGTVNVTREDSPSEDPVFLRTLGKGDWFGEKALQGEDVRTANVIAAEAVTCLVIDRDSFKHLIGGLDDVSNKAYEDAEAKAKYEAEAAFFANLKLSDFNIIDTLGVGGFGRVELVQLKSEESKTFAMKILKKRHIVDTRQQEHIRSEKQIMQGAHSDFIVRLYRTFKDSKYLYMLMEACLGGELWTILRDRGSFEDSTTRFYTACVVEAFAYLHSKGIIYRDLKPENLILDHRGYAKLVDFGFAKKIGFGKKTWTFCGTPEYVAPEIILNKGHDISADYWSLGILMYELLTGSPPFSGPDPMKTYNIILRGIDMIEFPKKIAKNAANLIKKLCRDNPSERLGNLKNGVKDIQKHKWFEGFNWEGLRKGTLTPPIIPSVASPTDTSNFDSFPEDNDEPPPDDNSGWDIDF

`N/C(CC(O)c1cc2c(F)cc(F)cc2c2cc(C(F)(F)F)ccc12)=N\c1ccc(F)cc1` (centres unmarked) gave an IC50 of 0.015 µM (Plasmodium falciparum; parasite growth; Dd2 parent).
For `CCN(CC)CCCC(C)Nc1ccnc2cc(Cl)ccc12` (centres unmarked), “AUC at ED90” read 3.1 µM·h (Plasmodium falciparum; 3D7 0087/N9, NSG mouse; dose not given).
The IC50 of `Cc1[nH]c(C)c(-c2ccc(-c3ccccc3C(F)(F)F)nc2)c(=O)c1Br` is reported as 0.17 µM (Plasmodium falciparum; whole cell extended time; 3D7; 72 h).
The remaining activity of `Nc1cc(C(F)(F)F)c(-c2nc(N3CCOCC3)nc(N3CCOCC3)n2)cn1` is reported as 100% (PRKG1 (Homo sapiens, UniProt Q13976); enzyme activity; 10 µM; reference: untreated).
The IC50 of `C/C=C1\NC(=O)[C@H]2CSSCC/C=C/[C@H](CC(=O)N[C@H](C(C)C)C(=O)N2)OC(=O)[C@H](C(C)C)NC1=O` is reported as 0.115 ± 0.035 µM (Plasmodium falciparum; parasite growth; 3D7).
For `Cc1[nH]c(C)c(-c2ccc(CCc3ccc(N)cc3)cc2)c(=O)c1Cl`, the IC50 was 0.1 µM (Plasmodium falciparum; whole cell extended time; 3D7; 72 h).
`N#Cc1cc(NC(=O)[C@H]2c3ccccc3C(=O)N(CC(F)(F)F)[C@@H]2c2cccnc2)ccc1F` gave an EC50 of 0.03 µM (Plasmodium falciparum; eryptosis induction; trophozoite/schizont-infected erythrocytes).
With `Cc1ccc(Oc2ccc(NC(=O)CNc3ccccc3N3CCCC3=O)cc2)cc1` the EC50 was 5.13 µM (Plasmodium falciparum; parasite growth; 3D7 resistant population A).
With `CCc1nc(N)nc(N)c1-c1ccc(Cl)cc1` the ED90 was 0.9 mg/kg (Plasmodium falciparum; 3D70087/N9, NSG mouse).
The IC50 of `O=C(Nc1ccc(OC2CCN(Cc3ccccc3)C2)c(Cl)c1)c1cccs1` (centres unmarked) is reported as 0.39 µM (Plasmodium falciparum; whole cell extended time; 3D7; 72 h).
`CCCCN(CCCC)CC(O)c1cc(Cl)cc2c1-c1ccc(Cl)cc1/C2=C/c1ccc(Cl)cc1` (centres unmarked) gave an IC50 of 0.0023 ± 0.0005 µM (Plasmodium falciparum; Dd2).

Excerpt of the above:
With `Cc1ccc(Oc2ccc(NC(=O)CNc3ccccc3N3CCCC3=O)cc2)cc1` the EC50 was 5.13 µM (Plasmodium falciparum; parasite growth; 3D7 resistant population A).
